Measured values pooled from the literature.
Each line is one published result; not all experiments were run side by side. Values joined by “and” are separate records of one study, mostly repeats; a detail may differ. ± gives the spread as reported.

Structure (SMILES) | test system | setting | how to read | measurement | result
CCCCc1nc2cc(/C=C/C(=O)NO)ccc2n1CCN(CC)CC | mouse, MOLM-13 subcutaneous xenograft | 75 mg/kg every other day, day 7 | relative to: baseline | body weight | 104%
CC(C)C[C@H](NC(=O)CN)C(=O)N[C@@H](CCCCN)C(=O)N[C@@H](CCCCN)C(=O)N[C@@H](CC(C)C)C(=O)N[C@@H](CC(C)C)C(=O)N[C@@H](CC(C)C)C(=O)N[C@@H](CC(C)C)C(=O)N[C@@H](CC(C)C)C(=O)N[C@@H](CCCCN)C(=O)N[C@@H](CCCCN)C(=O)N[C@@H](CC(C)C)C(=O)NCC(=O)NCC(=O)NCC(=O)N[C@@H](Cc1ccc(O)cc1)C(=O)N[C@H](C(=O)N[C@@H](CC(C)C)C(=O)N[C@@H](CO)C(=O)N[C@@H](CC(=O)O)C(=O)N[C@@H](CCCNC(=N)N)C(=O)N[C@@H](CO)C(=O)N[C@@H](Cc1c[nH]cn1)C(=O)N[C@@H](CC(N)=O)C(=O)N1CCC[C@H]1C(=O)N[C@@H](Cc1ccccc1)C(=O)N[C@@H](CC(N)=O)C(=O)O)[C@@H](C)O | C57BL/6 mouse | intraperitoneal, 40 mg/kg, 5 days | relative to: untreated | body weight | no effect
CC(=O)c1c(C)c2cnc(Nc3ccc(C4CCN(CCS(C)(=O)=O)CC4)cn3)nc2n(C2CCCC2)c1=O | mouse Colo-205 xenograft | 80 mg/kg twice daily |  | body weight loss | < 10%
CC(C)[C@@H]1NC(=O)CNC(=O)[C@H](CC(N)=O)NC(=O)[C@H](CCCNC(=N)N)NC(=O)[C@H](Cc2ccc(O)cc2)NC(=O)[C@H](C(C)C)NC(=O)[C@@H](NC(=O)[C@@H](NC(=O)[C@H](CC(N)=O)NC(=O)[C@H](Cc2c[nH]c3ccccc23)NC(=O)[C@H](C)NC(=O)[C@H](Cc2ccccc2)NC(=O)CN)C(C)C)CSSC[C@@H](C(=O)N[C@@H](Cc2cnc[nH]2)C(=O)N[C@@H](CCCNC(=N)N)C(=O)N[C@@H](CCCNC(=N)N)C(=O)N[C@@H](C)C(=O)N[C@@H](CC(N)=O)C(N)=O)NC(=O)[C@H](C(C)C)NC(=O)[C@H](CCCNC(=N)N)NC1=O | ICR mouse | ip, 10 mg/kg | direction not given | body posture score | 0
COc1cccc2c1C(=O)c1c(O)c3c(c(O)c1C2=O)C[C@@](O)(C(=O)CO)C[C@@H]3O[C@H]1C[C@H](N)[C@H](O)[C@H](C)O1 | CD-1 mouse | intravenous, 10 mg/kg | negative means weight gain | body weight loss | -11%
Cc1c(C(=O)O)ccc2c3n(nc12)[C@@H]1[C@H](C3)N(CC2CC2)[C@@]2(C(=O)Nc3cc(Cl)ccc32)[C@H]1c1cccc(Cl)c1F | mouse | dose not given, either dosing schedule |  | body weight change | not toxic
CC(C)(Nc1nc(-c2ccccn2)nc2ccccc12)c1ccccn1 | mouse | dose not given, day 3 | relative to: pretest | body weight decrease | ≤ 21%
N.N.[Cl][Pt][Cl] | nude mouse MCF7 xenograft | 5 mg/kg, day 2 |  | body weight | 18.8 ± 0.77 g
N.N.[Cl][Pt][Cl] | mouse xenograft model | dose not given, day 10 |  | body weight | 17 g and 23 g and 21 g and 16 g and 18 g and 19 g

Some of these lines once more:
Structure (SMILES) | test system | setting | how to read | measurement | result
CCCCc1nc2cc(/C=C/C(=O)NO)ccc2n1CCN(CC)CC | mouse, MOLM-13 subcutaneous xenograft | 75 mg/kg every other day, day 7 | relative to: baseline | body weight | 104%
